Assay results collected from several papers.
Every numbered part comes from another study and shows a few of its results, in no order. Positions count from the first letter of the parent shown.

Block 1 — technique: RNA Bind-n-Seq; form: RNA; medium: in vitro; concentration: 365 nM; baseline: no-protein control; direction: higher = stronger binding
Target: RNA binding protein fox-1 homolog 2, RRM domain, GST-SBP tag (RBFOX2, Homo sapiens, UniProt O43251-10, residues 100-194)
Notes: natural RNA segment, single round, ends assumed
Target sequence (chain): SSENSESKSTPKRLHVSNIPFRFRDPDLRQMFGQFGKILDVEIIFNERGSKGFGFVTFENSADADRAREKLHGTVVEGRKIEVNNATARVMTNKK
| Sequence | RBNS enrichment (R) |
| --- | --- |
| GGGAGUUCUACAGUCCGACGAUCCUAUGCUGCAAUAACGGGAGAGAUCCUGUCCAAGGAAGUCUAACGUCUAUAAAAAUGGAGUCACUGGGAUAUCAAUGAAGAAAUCAAACUGUUUAAUUUUAAUUCAGUUGUGGAAUUCUCGGGUGCCAA | 0.274 |
| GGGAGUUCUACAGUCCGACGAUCGGUAUCUUCAGCUGUUUCUUCUAUUGCUGGAUUUUCUGUUCCUUUUCCCCAGUGUUCUGUUUUCUUUGAGUGUAAUGACCCACAAGUGUCCUGCCAUUAAGAGAGGUCAGUGGAAUUCUCGGGUGCCAA | 0.358 |
| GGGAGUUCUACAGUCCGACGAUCUGGACCACCAAGGGGUUGUUGAAAACUAAUUGUAUUAAAUGUCUUUUGAUAAGCCUUCUGCUCACAUUUUUGUGAAUGUCUGAAGUAUAUAGUUUGUGUAUAUUGACAGAUGGAAUUCUCGGGUGCCAA | 0.389 |
| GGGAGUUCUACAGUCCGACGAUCCUUUAUUGAGAUGUAUCAUGUAUUGAAUGAGUGAACCAGAAAAUUAGAAGAUGGUCAAAAAAAGUCCAAGUUACCAAUUUUUUAAAAUUUAUAGGCAAAGUAUCAAAUUGUGGAAUUCUCGGGUGCCAA | 5.89 |
| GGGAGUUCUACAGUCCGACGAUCGAUGAGGACAUCCUCUUUGUCUACCUGGACAGCUGACAGCAGGAGCCUGGCAUGCCAGGUCCUCAGACCCUAUGUUCUAUCUCAGCCAGGCCCACUCAGGAUGCCCAUGCUGGAAUUCUCGGGUGCCAA | 0.355 |
| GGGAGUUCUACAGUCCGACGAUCUUGCUUAAACAAAGUAACCUGUUUGGCUUAUAAACACAUUGAAUGCGCUCUAUUGCCCAUGGGAUAUGUGGUGUGUAUCCUUCAGAAAAAUUAAAAGGAAAAAUAAAGAAUGGAAUUCUCGGGUGCCAA | 1.15 |
| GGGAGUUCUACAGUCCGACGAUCUUGGCACUCUAGUGCUCACAUAAUGGGUGAAGCCAUGGAAAGAGUCUAUGGUGGAUGUUUAUGCUACGGUCCGCCAAUAGAAAAUGGAUUCUAUUAUGACAUGUACCUCGUGGAAUUCUCGGGUGCCAA | 0.395 |
| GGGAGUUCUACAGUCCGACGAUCGCUGCACUGCCUUUCCUUGUCUGCAAAGUUGGUUUUGUCCACUCUGACCAAGACCUCUAGUUUUUGGUGGGUAGGGGGUCUCUCUGGUUUCCCCUUCAGCUAUAAUCUCUUGGAAUUCUCGGGUGCCAA | 0.346 |
| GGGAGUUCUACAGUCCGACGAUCGAGAGCCUCUUCUGGUGGAUGCUUUGCUCCCUCUGAGCUGCCCAUGCUGGUCUGGCAAACACACCUUUCUGCUUUGCCUUCACAAAAGUAAUGUGUUCCCUUUCCCACCCUGGAAUUCUCGGGUGCCAA | 0.489 |
| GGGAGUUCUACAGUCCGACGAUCGCAAGUGAAAAGGGUGGGUCCCUCAUAGGCUAGAAUGUGCAGCUCUUUCUCCAGGUGGGAUGUAGCACCCCGAAGUAGAGCUUUCUGCUCUGCUCCUGGAAAAGGCUAGGUGGAAUUCUCGGGUGCCAA | 0.666 |
| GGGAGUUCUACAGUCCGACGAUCUUCCUCCUGGAAAUUGACGAGGGGUGUCUUGGGCAGAGCUGGCUCUGAGCGCCUCCAUCCAAGGCCAGGUUCUCCGUUAGCUCCUGUGGCCCCACCCUGGGCCCUGGGCUUGGAAUUCUCGGGUGCCAA | 0.214 |
| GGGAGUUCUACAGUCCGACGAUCCAAAGAAAAAUUAAGCCUCCCAAUCUUAGGAUCCAAUUGUGCAGUAGAAUUCAGAGACUUCUCAUUCAAUCUUGUAUCCUAUGCAGCUACAAAUAUUUUUUAAAUGUUAGUGGAAUUCUCGGGUGCCAA | 0.55 |

Block 2 — technique: universal PBM; form: double-stranded DNA, one strand shown; medium: in vitro; concentration: 600 nM; direction: higher = stronger binding
Target: Sal-like protein 4, full length isoform A (SALL4, Homo sapiens, UniProt Q9UJQ4, residues 1-1053)
UniProt Q9UJQ4, sequence (whole entry, looked up): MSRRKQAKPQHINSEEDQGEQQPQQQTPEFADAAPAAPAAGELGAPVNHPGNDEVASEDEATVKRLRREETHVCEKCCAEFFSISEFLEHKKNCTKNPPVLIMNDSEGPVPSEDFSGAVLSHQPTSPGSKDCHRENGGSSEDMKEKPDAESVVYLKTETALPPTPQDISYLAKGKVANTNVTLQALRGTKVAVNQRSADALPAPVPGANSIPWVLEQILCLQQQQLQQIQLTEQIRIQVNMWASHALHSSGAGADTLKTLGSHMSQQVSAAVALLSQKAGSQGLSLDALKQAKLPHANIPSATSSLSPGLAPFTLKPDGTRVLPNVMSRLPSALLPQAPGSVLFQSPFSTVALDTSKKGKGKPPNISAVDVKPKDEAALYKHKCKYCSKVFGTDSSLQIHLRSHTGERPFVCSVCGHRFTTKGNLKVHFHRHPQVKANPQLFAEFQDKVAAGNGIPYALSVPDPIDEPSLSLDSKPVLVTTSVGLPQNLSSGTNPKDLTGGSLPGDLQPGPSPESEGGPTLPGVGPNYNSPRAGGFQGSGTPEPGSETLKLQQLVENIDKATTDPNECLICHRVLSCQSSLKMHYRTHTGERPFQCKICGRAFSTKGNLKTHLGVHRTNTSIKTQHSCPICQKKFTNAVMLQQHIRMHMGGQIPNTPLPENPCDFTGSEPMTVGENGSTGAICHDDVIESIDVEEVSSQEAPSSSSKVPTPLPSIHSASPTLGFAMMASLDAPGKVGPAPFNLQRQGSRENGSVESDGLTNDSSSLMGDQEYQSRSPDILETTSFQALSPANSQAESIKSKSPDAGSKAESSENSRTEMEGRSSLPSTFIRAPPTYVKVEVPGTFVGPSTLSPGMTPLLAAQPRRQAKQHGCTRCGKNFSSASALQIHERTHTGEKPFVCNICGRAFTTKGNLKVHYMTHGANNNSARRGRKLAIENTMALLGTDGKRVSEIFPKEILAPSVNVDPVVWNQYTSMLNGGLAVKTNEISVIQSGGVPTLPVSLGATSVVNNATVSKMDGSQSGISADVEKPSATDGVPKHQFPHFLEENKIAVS
Notes: 8-mer, flanks averaged, mean of replicates
| Sequence | E-score |
| --- | --- |
| TGAGGACA | 0.0958 |
| CTGGCTAA | -0.0973 |
| AGCGGAGG | -0.211 |
| AAGACGCG | -0.108 |
| ACCGGTCG | -0.287 |
| ATAGCCCA | 0.035 |
| CGCACCAG | -0.243 |
| GGGTGACC | -0.343 |
| AATCGGTC | -0.0584 |
| CCTGTTTC | -0.0333 |
| CCTCACGA | -0.207 |
| CGGGCGGC | -0.392 |
| CGCGCTTC | -0.212 |
| GATAGGCA | 0.15 |
| CATCTCAC | -0.053 |
| CTAGCACC | -0.264 |
| CACAGCAG | -0.114 |
| GGGCCCAA | -0.221 |
| GAAACGTC | -0.122 |
| AACAACGT | 0.00585 |
| ACATGGGC | -0.169 |
| AGACCGCT | -0.193 |
| CTGAAGAC | -0.147 |
| TAAAGGAA | 0.15 |
| GTCTAGCA | -0.0499 |

Block 3 — technique: protein binding microarray; form: double-stranded DNA, one strand shown; medium: in vitro; concentration: not given; baseline: not given; direction: higher = stronger binding
Target: Histone acetyltransferase KAT6A, winged helix 1, GST fusion (KAT6A, Homo sapiens, UniProt Q92794, residues 1-85)
Notes: 8-mer, flanks averaged, mean of 2 arrays, mostly near background
Residues (chain): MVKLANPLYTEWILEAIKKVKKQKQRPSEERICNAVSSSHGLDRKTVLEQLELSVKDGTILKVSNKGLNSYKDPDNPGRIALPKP
| Sequence | E-score |
| --- | --- |
| GCATTGCA | -0.104 |
| AGCAGACG | -0.0587 |
| ATTCTGAG | -0.168 |
| CTCTATAC | -0.0435 |
| GGCTCACC | 0.0516 |
| ACTCCGAA | 0.0243 |
| CCAACTAC | -0.146 |
| GTCATGAA | -0.079 |
| CTTTATGA | -0.144 |
| GCGCCCAA | 0.151 |
| GCCGCACC | 0.318 |
| AAATGTTC | -0.0483 |
| CACAGTAG | -0.176 |
| TACCATAA | -0.0858 |
| CGAGTGCG | 0.236 |
| CCCACGGA | 0.0784 |
| CGGGCGCC | 0.409 |
| AACAACTG | -0.0688 |
| AACCGTTG | 0.0268 |
| AAAACCTG | -0.272 |
| AGAACTAG | -0.161 |
| ACCATACA | -0.0794 |
| ACACATAT | -0.168 |
| TAACGGCA | 0.288 |
| CAAACAAA | -0.264 |

Block 4 — target: CCND3, cyclin fold, Cln2 fusion (human); technique: yeast growth competition, sequencing; medium: yeast; notes: weak parent motif; baseline: not given; direction: higher = stronger binding
Starting sequence: DTL docking peptide (human); PSSMRKICTYFHR; partner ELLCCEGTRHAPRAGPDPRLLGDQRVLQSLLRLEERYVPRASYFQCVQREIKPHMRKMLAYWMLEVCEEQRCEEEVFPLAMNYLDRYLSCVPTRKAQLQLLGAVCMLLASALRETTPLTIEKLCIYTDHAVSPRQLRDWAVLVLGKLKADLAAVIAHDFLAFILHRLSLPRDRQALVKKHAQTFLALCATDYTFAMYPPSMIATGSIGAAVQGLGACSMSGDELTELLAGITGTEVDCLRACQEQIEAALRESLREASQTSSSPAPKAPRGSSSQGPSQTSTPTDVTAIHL
| Change | normalised enrichment score |
| --- | --- |
| T9A | 0.0912 |
| P1A | -0.446 |
| I7A | -0.0909 |
| F11A | 0.082 |
| S3A | -0.624 |
| C8A | -0.322 |

Some of these lines once more (block 2):
| Sequence | E-score |
| --- | --- |
| GGGTGACC | -0.343 |
| CCTGTTTC | -0.0333 |
| AATCGGTC | -0.0584 |
| CCTCACGA | -0.207 |
| CGGGCGGC | -0.392 |
| CTGAAGAC | -0.147 |
| AACAACGT | 0.00585 |
| GAAACGTC | -0.122 |
| ACATGGGC | -0.169 |
| AGCGGAGG | -0.211 |
